Results collected from several papers.
Each line is one published result; not all experiments were run side by side. Values joined by “and” are separate records of one study, mostly repeats; a detail may differ. pIC50: −log10 of the molar value.

SMILES | tested on | assay | system | setting | how to read | endpoint | value
COc1ccccc1-c1ccncc1C(=O)Nc1nnc(OCc2ccc(Cl)cc2)s1 | PEO1 BRCA2-mutant ovarian cancer | – | – | 0.5 µM, together with: olaparib 0.25 µM | – | colony survival | 9.68% and 0%
Nc1ncc(-c2cc(-c3cnn(CC(F)(F)F)c3)ncc2F)nc1C(=O)NC1CNCC(F)C1 (centres unmarked) | INSR | KINOMEscan | – | 1 µM | baseline: DMSO control | remaining binding | 87%
c1ccc(-c2n[nH]cc2-c2ccnc3ccccc23)nc1 | KIN2 (Candida albicans) | kinase binding, MIB/MS competition | Candida albicans lysate | 1 µM | baseline: DMSO | log2 fold change | -0.07
C=CC(=O)N1[C@@H](c2ccc3c(c2)OCO3)c2[nH]c3ccccc3c2C[C@H]1C(=O)N1CCN(C)CC1 | human cyclin E1 N112C-3xFLAG:CDK2 | co-IP with TMT proteomics, measured: CDK2 | – | concentration not given, P24941 | baseline: wild type DMSO | relative co-enrichment | 105%
Cc1ncsc1-c1ccc(C(C)NC(=O)C2CC(O)CN2C(=O)C(NC(=O)CCCCCCCCCCN2CCCC(Nc3ncc(Cl)c(Nc4ccccc4S(=O)(=O)C(C)C)n3)C2)C(C)(C)C)cc1 (centres unmarked) | 22Rv1 | RNA-seq, measured: TAF12 mRNA | – | concentration not given | baseline: DMSO | log2 fold change | -1.09
COC1CN([C@H]2CC[C@H]([C@@]3(C)Oc4c(Cl)cc(C(=O)NCc5c(SC)cc(C)[nH]c5=O)c(C)c4O3)CC2)C1 | – | RNA-seq, measured: WDR26 mouse homolog | mouse, HT-1376 xenograft, whole blood | dose not given | baseline: vehicle | log2 fold change | 2.03
CNS(=O)(=O)Nc1nccc(Cc2c(C)c3ccc(Oc4ncccc4F)cc3oc2=O)c1F | LOU-NH91 | cell viability | – | 7 days | – | pIC50 | < 6.00
C=CC(=O)Nc1cccc(Cn2ncc3cnc(Nc4cnn(CCOC)c4)nc32)c1 | MAP4K2 human | binding, KINOMEscan | – | 100 nM | lower = stronger binding | percent of control | 48%

A few entries again:
SMILES | tested on | assay | system | setting | how to read | endpoint | value
CNS(=O)(=O)Nc1nccc(Cc2c(C)c3ccc(Oc4ncccc4F)cc3oc2=O)c1F | LOU-NH91 | cell viability | – | 7 days | – | pIC50 | < 6.00
